Experimental data from different studies.
Protocols differ between the studies behind these lines. Several values in a cell are separate wells, animals, samples, runs or records. ± marks the error that the study gave.
CASP6: Caspase-6 (CASP6, Homo sapiens, UniProt P55212)
PLIN3: Perilipin-3 (PLIN3, Homo sapiens, UniProt O60664)
Gria1: Glutamate receptor 1 (Gria1, Rattus norvegicus, UniProt P19490)
BRD4 BD1: Bromodomain-containing protein 4, BD1 (BRD4, Homo sapiens, UniProt O60885)
TDP1: Tyrosyl-DNA phosphodiesterase 1 (TDP1, Homo sapiens, UniProt Q9NUW8)

SMILES	target	assay	test system	setting	how to read	quantity	value
CC1(C)C[C@@H](Nc2cccc(-c3sc(C(=O)O)c(OCC(=O)O)c3Cl)c2)CCN1S(=O)(=O)Cc1cccc(NC(=O)CN2CCC(c3ccc4c(c3)oc(=O)n4C3CCC(=O)NC3=O)CC2)c1 (some centres unmarked)	PTPN2 (Homo sapiens, UniProt P17706, E41K/R35E/R43E)	degrader, bio-layer interferometry	–	62.5 nM	higher = more binding	BLI binding response	0.363 a.u.
CC(=O)N[C@@H](CO)C(=O)N[C@@H](Cc1ccccc1)C(=O)N[C@@H](C)C(=O)N[C@@H](CC(=O)O)C(=O)COC(=O)c1c(C)cccc1C	CASP6	enzyme activity, inhibitor	–	–	–	kinact/KI	1100 M⁻¹ s⁻¹
CCCCCCCCCCCCC/C=C/C=O	PLIN3	competitive isoTOP-ABPP, refers to: M6PRBP1 cysteine peptide	Ramos soluble proteome	100 µM, with: iodoacetamide probe	relative to: DMSO over compound-treated, higher = stronger cysteine blockade	isoTOP-ABPP competition ratio	1.3
O=C(O)Cc1cc2c(cc1C(=O)c1cccc(Br)c1)OCO2	Gria1	whole-cell patch clamp	HEK-293T	concentration not given, with: glutamate	–	desensitization time constant	1.2 ± 0.1 ms
CC[C@H](C)[C@@H]1NC(=O)[C@H](Cc2c[nH]c3ccccc23)NC(=O)[C@H](Cc2ccccc2)N(C)C(=O)[C@H](C(C)C)NC(=O)[C@H](CC(C)C)NC(=O)[C@H](Cc2ccccc2)NC(=O)CSC[C@@H](C(=O)N[C@@H](CC(N)=O)C(N)=O)NC(=O)[C@H](Cc2ccccc2)NC1=O	BRD4 BD1	thermal stability, DSF	–	50 µM	–	ΔTm	0.41 °C
COC(=O)Cc1cc2c(cc1C(=O)c1ccccc1)OCO2	Gria1	glutamate-evoked current, whole-cell patch clamp	HEK-293T	concentration not given, weighted tau, 500 ms pulse, with: glutamate	–	desensitization time constant	2.4 ± 0.1 ms
O=C1c2sc(-c3ccc(N4CCC(CO)CC4)nc3F)nc2CCN1c1cccnc1	Nociceptin receptor (OPRL1, Homo sapiens, UniProt P41146)	ligand displacement, radioligand	–	1 µM	–	inhibition	7%
N#Cc1ccc(-c2ccc(C=NOCc3ccc(-c4nc5cc(-c6ccccc6)ccn5c4Nc4ccc(C(=O)O)cc4)cc3)cc2)nc1	TDP1	enzyme activity, inhibitor	–	100 µM	–	inhibition	102%
CC(=O)N1C[C@H](O)C[C@H]1C(=O)N[C@@H](CC(C)C)C(=O)N[C@@H](C)C(=O)N[C@@H](CC(=O)O)C(=O)COC(=O)c1c(C)cccc1C	CASP6	enzyme activity, inhibitor	–	–	–	kinact/KI	600 M⁻¹ s⁻¹
O=C(O)Cc1cc2c(cc1C(=O)c1ccccc1Cl)OCO2	Gria1	glutamate-evoked current, whole-cell patch clamp	HEK-293T	concentration not given, weighted tau, 500 ms pulse, with: glutamate	–	desensitization time constant	1 ± 0.1 ms
CC(=O)N[C@@H](CO)C(=O)N[C@H](C(=O)N1CCC[C@H]1C(=O)N[C@@H](CC(=O)O)C(=O)COC(=O)c1c(C)cccc1C)C(C)(C)C	CASP6	enzyme activity, inhibitor	–	–	–	kinact/KI	1300 M⁻¹ s⁻¹
N[C@H]1CC[C@H](Nc2nccc(-c3cccnc3Oc3ccc(NC(=O)NC4CC4)c4ccccc34)n2)CC1	Cyclin-K (CCNK, Homo sapiens, UniProt O75909)	kinobead competition pulldown	HEK293/HCT116 lysate mixture	10 µM, 1 h, 4 °C	lower = stronger competition	log2 LFQ intensity	21.9 and 22.4 and 22.6 and 22.2
Cc1cc(Br)c2c(c1)C(O)(CC(=O)c1ccc(F)cc1)C(=O)N2 (centres unmarked)	ppa (Escherichia coli, UniProt P0A7A9)	enzyme activity	–	counter-screen	–	Hill slope	-1.01
C[C@H](NCc1ccc(-c2cccc(C(F)(F)F)c2)cc1)C(N)=O	MAOB (Homo sapiens, UniProt P27338)	inhibitor, Amplex Red	–	with: benzylamine	relative to: MAO-A IC50 over MAO-B IC50	selectivity index	> 316
O=C1c2sc(-c3ccc(N4CCC(F)C4)nc3F)nc2CCN1c1cccnc1 (centres unmarked)	TAR DNA-binding protein 43, aggregated (TARDBP, Homo sapiens, UniProt Q13148)	saturation autoradiography	human, FTLD-TDP type A brain sections	14.09 nM	–	specific binding	111 nM
CC(C)Oc1cc(Cl)ccc1CNc1cc(-c2ccccc2)nc2ncnn12	GPR3 (Homo sapiens, UniProt P46089, I200W)	cAMP GloSensor	human cells	10 µM	higher is more cAMP	cAMP luminescence	15200 a.u. and 22600 a.u. and 16900 a.u. and 17400 a.u.
O=C(O)c1ccc(Nc2c(-c3ccc(CON=Cc4ccc(=O)n(Cc5ccc(Cl)c(Cl)c5)c4)cc3)nc3cc(-c4ccccc4)ccn23)cc1	TDP1	enzyme activity, inhibitor	–	100 µM, unpurified compound	–	inhibition	74.5%
C#CC[C@H](NC(=O)c1ccc(C(=O)c2ccccc2)cc1)C(=O)NCCCCCC(=O)N[C@@H](CCCCNC(=O)CSCCNC(=O)CCNC(=O)[C@H](O)C(C)(C)COP(=O)(O)OP(=O)(O)OC[C@H]1O[C@@H](n2cnc3c(N)ncnc32)[C@H](O)[C@@H]1OP(=O)(O)O)C(N)=O	GLO1 (Homo sapiens, UniProt Q04760)	affinity enrichment LC-MS/MS	HEK293 cell extract, PCAF transfected	–	relative to: 1 over empty vector	enrichment ratio	1.5
COc1cc(-c2cn(C)c(=O)c3cnccc23)cc(OC)c1CN(C)C	BRD4 BD1	–	–	–	–	ΔTm	0.8 °C
Cc1cnc2nc1Nc1cccc(c1)COC/C=C/COCc1cc(ccc1OCCN1CCOCC1)N2	MAP3K12 (Homo sapiens, UniProt Q12852)	cell-free assay	–	0.1 µM	–	remaining signal	73%
CC(=NOCc1ccc(-c2nc3cc(-c4ccccc4)ccn3c2Nc2ccc(C(=O)O)cc2)cc1)c1ccc(O)cc1 (mixture of isomers)	TDP1	enzyme activity, inhibitor	–	100 µM, unpurified compound	–	inhibition	63%
O=[N+]([O-])c1cc(Br)cc([N+](=O)[O-])c1NS(=O)(=O)c1ccc(Br)cc1	HAB1 (Arabidopsis thaliana, UniProt Q9CAJ0)	inhibitor	–	100 µM, no PYL receptor	higher = more activity	phosphatase activity	1.01 a.u. and 1.13 a.u. and 0.971 a.u.

SMILES	target	assay	test system	setting	how to read	quantity	value
COc1cccc2c(N3CCC(CCP(=O)(O)O)CC3)ncnc12	Enpp1 (Mus musculus, UniProt P06802)	binding, SPR	–	–	–	koff	0.00195 s⁻¹
Cc1ccc2[nH]c(-c3ccccn3)nc2c1	Core-binding factor subunit beta, with RUNX1 Runt domain (Homo sapiens, UniProt Q13951)	Runt domain binding, inhibitor, FRET	–	–	–	IC50	inactive
CC(=O)c1cnc(N)nc1N1CC[C@H]1c1nn2ccc(Cl)c2c(=O)n1-c1ccccc1	PIK3CD (Homo sapiens, UniProt O00329)	binding, competition with immobilised ligand	–	10 µM	–	remaining binding	3.5%
C=C1C[C@@]2(C(=O)OC)C=C(C(=O)Nc3cccc(C(=O)Nc4ccc(Nc5nccc(-c6cccnc6)n5)c(C)c4)c3)C(=O)[C@@H]1C2	MAPK8 (Homo sapiens, UniProt P45983, C116S)	binding, SPR	–	100, 300, 1000 nM, 1:1 binding model	–	kon	376000 M⁻¹ s⁻¹
O=C(O)c1ccc(Nc2c(-c3ccc(CON=Cc4c(N5CCCC5)nc5ccccn45)cc3)nc3cc(-c4ccccc4)ccn23)cc1	TDP1	enzyme activity, inhibitor	–	100 µM, unpurified compound	–	inhibition	85.4%
CCCCCCOc1ccc(C(=O)OCC[N+]2(C)CC=CCC2)cc1 (centres unmarked)	CHRM5 (Homo sapiens, UniProt P08912)	–	membranes	100 µM, 15 h, no carbachol	relative to: control	basal binding	1.1 ± 0.04 fold
CCCCCC(O)/C=C/C=O (centres unmarked)	PLIN3	competitive isoTOP-ABPP	Ramos soluble proteome	100 µM, 60 min, with: iodoacetamide probe	relative to: DMSO over compound-treated, higher = stronger cysteine blockade	isoTOP-ABPP competition ratio	5.2
CS(=O)(=O)Nc1cccc(C=NOCc2ccc(-c3nc4cc(-c5ccccc5)ccn4c3Nc3ccc(C(=O)O)cc3)cc2)c1	TDP1	enzyme activity, inhibitor	–	100 µM, unpurified compound	–	inhibition	45.8%
C=CC(=O)N1C[C@H](C)N(c2nc(OC[C@@]34CCCN3C[C@H](F)C4)nc3c(F)c(-c4ccc(F)c5sc(N)c(C#N)c45)c(C(F)(F)F)cc23)C[C@H]1C	GTPase KRas, GppNHp-bound (KRAS, Homo sapiens, UniProt P01116, Q61R)	–	–	–	relative to: Q61R-GppNHp	affinity loss	5 to 10 fold
CNc1cc(N)c(C(N)=O)c[n+]1C	Nicotinamide N-methyltransferase, SAH-bound (NNMT, Homo sapiens, UniProt P40261)	product complex binding	–	–	–	dissociation half-life	1.03 h
CC[C@H](C)[C@@H]1NC(=O)[C@H](Cc2c[nH]c3ccccc23)NC(=O)[C@H](C)NC(=O)[C@H](Cc2ccc(O)cc2)NC(=O)CNC(=O)[C@H](Cc2ccccc2)N(C)C(=O)[C@H](C)N(C)C(=O)[C@H](Cc2ccc(O)cc2)NC(=O)[C@H](C(C)C)NC(=O)[C@H](CC(C)C)NC(=O)[C@H](Cc2ccccc2)NC(=O)CSC[C@@H](C(=O)NCC(N)=O)NC1=O	BRD4 BD1	thermal stability, DSF	–	100 µM	–	ΔTm	1.01 °C
CN(C)c1ccnc(-n2cccc2C=NOCc2ccc3nc(-c4ccccc4)c(Nc4ccc(C(=O)O)cc4)n3c2)c1C#N (mixture of isomers)	TDP1	enzyme activity, inhibitor	–	100 µM, unpurified compound	–	inhibition	-0.5%
CC(C)[C@@H]1NC(=O)[C@H](Cc2ccccc2)NC(=O)CSC[C@@H](C(N)=O)NC(=O)[C@H](CCC(=O)O)NC(=O)[C@H](CO)NC(=O)[C@H](Cc2c[nH]c3cccc(Cl)c23)NC(=O)[C@H](C2CCCCC2)NC(=O)[C@H](C(C)C)NC(=O)[C@H](Cc2ccc(O)cc2)NC(=O)[C@H](CC(=O)O)NC(=O)[C@H](Cc2c[nH]c3ccccc23)NC(=O)[C@H](Cc2ccc(N)nc2)NC(=O)[C@H](Cc2c[nH]c3ccc(Cl)cc23)NC(=O)[C@H](CCC(=O)O)NC1=O	Interleukin-1 receptor-like 2 (IL1RL2, Homo sapiens, UniProt Q9HB29)	reporter gene (SEAP), inhibitor, HEK-Blue IL-36R reporter	HEK-Blue IL-36R cells	0.046 µM, 6 h, with: IL-36γ 3 ng/mL	–	remaining activity	104%
CC(=O)N[C@@H](CCC(N)=O)C(=O)N[C@@H](CC(C)C)C(=O)N[C@@H](CCCC(=O)O)C(=O)N1CCC[C@H]1C(=O)N[C@@H](CC(=O)O)C(=O)COC(=O)c1c(C)cccc1C	CASP6	enzyme activity, inhibitor	–	–	–	kinact/KI	24600 M⁻¹ s⁻¹
CCCCCC=CC=C1C(=O)C=CC1CC=CCCCC(=O)O (centres unmarked)	AH receptor-interacting protein (Homo sapiens, UniProt O00170)	competitive isoTOP-ABPP	Ramos soluble proteome	100 µM, with: iodoacetamide probe	relative to: DMSO over compound-treated, higher = stronger cysteine blockade	isoTOP-ABPP competition ratio	2.4
O=C(O)c1ccc(Nc2c(-c3ccc(CON=Cc4cc(-c5ccc(F)cc5)on4)cc3)nc3cc(-c4ccccc4)ccn23)cc1 (mixture of isomers)	TDP1	enzyme activity, inhibitor	–	100 µM, unpurified compound	–	inhibition	91.8%
O=C1CC(c2ccccc2)N1C(=O)Nc1ccccc1 (centres unmarked)	glpG (Escherichia coli, UniProt P09391)	enzyme activity, inhibitor, gel-based chimeric protein substrate	–	–	–	IC50	inactive
Cc1sc2c(c1C)C(c1ccc(Cl)cc1)=N[C@@H](CC(=O)NCCN(C)CCCCNC(=O)CCCCOc1cccc3c1C(=O)N([C@H]1CCC(=O)NC1=O)C3=O)c1nnc(C)n1-2	Bromodomain-containing protein 4, short isoform (BRD4, Homo sapiens, UniProt O60885)	degrader, Western blot, refers to: BRD4 short isoform	MV4-11	–	–	Dmax	78.4%
COc1ccc(C(=O)CC2(O)C(=O)Nc3ccc(C)cc32)cc1OC (centres unmarked)	Uncharacterized protein (Trypanosoma brucei brucei, UniProt Q386Q8)	inhibitor, coupled colorimetric	Trypanosoma brucei	–	–	Hill slope	-30
N[C@@H](Cc1c[nH]c2ccc(OCc3ccccc3)cc12)C(=O)O	SLC7A5 (Homo sapiens, UniProt Q01650)	[3H]-L-leucine uptake	HT-29	–	–	Hill slope	-0.672
COc1cc(Cl)cc(C=NOCc2ccc3nc(-c4ccccc4)c(Nc4ccc(C(=O)O)cc4)n3c2)c1O	TDP1	enzyme activity, inhibitor	–	100 µM, unpurified compound	–	inhibition	76.5%
FC(F)(F)c1cccc(Nc2nc(NC3CCCCC3)c3ccccc3n2)c1	ADRB2 (Homo sapiens, UniProt P07550)	β-arrestin2 recruitment, PathHunter and GloSensor	–	–	relative to: GloSensor IC50 over PathHunter IC50	bias factor	3 fold

Repeated from above:
SMILES	target	assay	test system	setting	how to read	quantity	value
COc1cc(-c2cn(C)c(=O)c3cnccc23)cc(OC)c1CN(C)C	BRD4 BD1	–	–	–	–	ΔTm	0.8 °C
O=C(O)c1ccc(Nc2c(-c3ccc(CON=Cc4ccc(=O)n(Cc5ccc(Cl)c(Cl)c5)c4)cc3)nc3cc(-c4ccccc4)ccn23)cc1	TDP1	enzyme activity, inhibitor	–	100 µM, unpurified compound	–	inhibition	74.5%
N#Cc1ccc(-c2ccc(C=NOCc3ccc(-c4nc5cc(-c6ccccc6)ccn5c4Nc4ccc(C(=O)O)cc4)cc3)cc2)nc1	TDP1	enzyme activity, inhibitor	–	100 µM	–	inhibition	102%
